Experimental data of several laboratories.

| Structure (SMILES) | cell line | test | conditions | how to read | quantity | result |
| --- | --- | --- | --- | --- | --- | --- |
| Cn1cc(Nc2nccc(-c3ccc4c(c3)CN(C3COC3)CC[C@H]4NC(=O)c3cn(C(C)(C)C)nn3)n2)cn1 | mouse splenic B cells | refers to: Sirtuin signalling pathway | 30 mg/kg, IgD-activated in vivo | relative to: vehicle, direction not given | pathway activation z-score | 0.87 |
| O=C(/C=C/C=C/C=C/C1CCCCC1)NC1=C[C@@](O)(/C=C/C=C/C=C/C(=O)NC2=C(O)CCC2=O)[C@@H]2O[C@@H]2C1=O | NCI-H650 | cell growth, CellTiter-Glo | 78 h |  | GI50 | 15200 nM |
| CCn1cc(-c2cc(Cn3ccoc3=N)cc3c2CCN([C@@H](C)c2cc(OC)ccn2)C3=O)c(C(F)(F)F)n1 | HH | cell growth, inhibitor | 120 h |  | EC50 | 81.6 nM |
| CCC(=O)O[C@]1(C(=O)SCF)[C@H](C)C[C@H]2[C@@H]3C[C@H](F)C4=CC(=O)C=C[C@]4(C)[C@@]3(F)[C@@H](O)C[C@@]21C | human iPSC-derived cardiomyocytes | MyBP-C/MYH ratio, plate-normalised SD score | concentration not given, primary screen | direction not given | activity score | 3.4 |
| COc1cnc2cccc(N3CCc4c(cc(Cn5ccnc5C)cc4-c4cn(C)nc4C(F)(F)F)C3=O)c2c1 | SK-BR-3 | cell growth, inhibitor | 120 h |  | EC50 | 2350 nM |
| O=C(O)CCNC(=O)c1ccccc1 | human iPSC-derived cardiomyocytes | MyBP-C/MYH ratio, plate-normalised SD score | concentration not given, primary screen | direction not given | activity score | 3.2 |
| CCn1cc(-c2cc(Cn3ccnc3)cc3c2CCN([C@H](c2cc(OC)ccn2)C2CC2)C3=O)c(C(F)(F)F)n1 | KYM1 | cell growth | 120 h |  | EC50 | 3620 nM |
| C=CCc1ccccc1OCC(O)CNC(C)C (stereo not drawn) | human iPSC-derived cardiomyocytes | MyBP-C/MYH ratio, plate-normalised SD score | concentration not given, primary screen | direction not given | activity score | 3.3 |
| Cn1cc(-c2ccc(-c3cncc(Cl)c3N3CCC4(CCNC4=O)CC3)cc2)cn1 | COLO 205 | gene expression, microarray, refers to: IFIT3 mRNA | concentration not given, 2 h | relative to: untreated cells | log2 fold change | 1.52 |

For quick reference, copied from above:
| Structure (SMILES) | cell line | test | conditions | how to read | quantity | result |
| --- | --- | --- | --- | --- | --- | --- |
| O=C(O)CCNC(=O)c1ccccc1 | human iPSC-derived cardiomyocytes | MyBP-C/MYH ratio, plate-normalised SD score | concentration not given, primary screen | direction not given | activity score | 3.2 |
